Published values collected from several papers.
Protocols differ between the studies behind these lines. ± marks the error that the study gave.

SMILES | cell line | assay | conditions | scale | endpoint | value
Cc1c(C(=O)Nc2ccn(C)n2)ncn1Cc1cccc(C(F)(F)F)c1 | M17D expressing αS E46K | western blot | 10 µM, 48 h, pS129 to total αS ratio | – | αS Ser129 phosphorylation | decreased
CC(C)c1cccc(C(C)C)c1N1CCN(c2c(C(C)C)cccc2C(C)C)C1=[Se].[Cl][Au] | A2780 ADR | MTT | – | relative to: A2780 ADR over A2780 | resistance factor | 0.5
C=C(C)[C@@H]1CC[C@]2(C(=O)OCO/N=[N+](\[O-])N3CCCC3)CC[C@]3(C)[C@H](CC[C@@H]4[C@@]5(C)CC[C@H](OC(C)=O)C(C)(C)[C@@H]5CC[C@]43C)[C@@H]12 | B16-F10 | PI flow cytometry | 0.50 µM | – | cells in S phase | 43.8%
CC(=O)OC[C@H]1O[C@@H](Sc2sc(C(=O)c3ccc(Br)cc3)c(N)c2-c2nc3ccccc3s2)[C@H](OC(C)=O)[C@@H](OC(C)=O)[C@@H]1OC(C)=O | SN12C | SRB | 10 µM, 48 h | relative to: untreated | growth | 98%
CC(C)NCC(O)c1ccc(O)c(O)c1 (stereo not shown) | hiPSC cardiac tissues 3D | active force | 15 min per concentration, paced at 1 Hz serum-free | – | minimum effective concentration | < 0.0001 µM
CC(CCC(=O)NCc1ccc(C(=O)NO)cc1)C1CCC2C3C(O)CC4CC(O)CCC4(C)C3CCC12C (stereo not shown) | polycystic liver disease cholangiocytes (human) | CFSE flow cytometry | 2 and 10 µM, 48 h | – | cell proliferation | inhibited
N=C(N/N=C/c1ccc(F)cc1)N/N=C/c1ccc(F)cc1 | PANC-1 | crystal violet | 72 h | relative to: IC50 IMR-90 over IC50 PANC-1 | selectivity ratio | 0.6
CCN(CC)CC(=O)N1CCN(c2nc(NCc3nc4cc(Cl)c(Cl)cc4[nH]3)c3ncn(CC)c3n2)CC1 | MDA-MB-231 | western blot | concentration not given, 6 h | – | RNA Pol II Ser2 phosphorylation | decreased
CN1CCN(C(=O)N(CCCCCCC(=O)NO)c2ccc(-c3ccc4cnn(C)c4c3)cc2)CC1 | multiple myeloma cells | immunoblot, item: p21 | 300 nM | – | protein level | increased
COc1cc(CNC(=O)C[C@H](C)CCC=C(C)C)ccc1OCc1cn(-c2ccccc2[N+](=O)[O-])nn1 | SN12C | SRB | 10 µM, 48 h | – | growth percent | 73.7%
CCC(=C(c1ccc(Cl)cc1)c1ccc(OCCCN(C)C)cc1)c1ccc(OC)cc1 | Ishikawa | estrogenic activity, agonist | 10 nM, 72 h, unit not given | relative to: DMSO | alkaline phosphatase activity | 1.47 ± 0.45
COc1cc(CNC(=O)C[C@H](C)CCC=C(C)C)ccc1OCc1cn(-c2cccc(C(F)(F)F)c2)nn1 | NCI-H23 | SRB | 10 µM, 48 h | – | growth percent | 79.3%
CC(=O)OC[C@H]1O[C@@H](Sc2sc(C(=O)c3ccc(C)cc3)c(N)c2-c2nc3ccccc3s2)[C@H](OC(C)=O)[C@@H](OC(C)=O)[C@H]1OC(C)=O | UACC-257 | SRB | 10 µM, 48 h | relative to: untreated | growth | 98.5%
COc1cc(CNC(=O)C[C@H](C)CCC=C(C)C)ccc1OCc1cn(-c2ccc(Br)cc2)nn1 | SK-MEL-5 melanoma cells | SRB | 10 µM, 48 h | – | growth percent | 55.6%
COc1cc(CN2CCN(c3ccc(Cl)cc3)CC2)c2cc3[n+](cc2c1O)CCc1cc2c(cc1-3)OCO2 | Ca-Ski and MDCK | SRB | 48 h | relative to: CC50 MDCK over IC50 Ca-Ski | therapeutic index | 27.8
COc1cc(CNC(=O)C[C@H](C)CCC=C(C)C)ccc1OCc1cn(-c2ccc(F)cc2)nn1 | CAKI-1 | SRB | 10 µM, 48 h | – | growth percent | 81.8%
COc1ccc([C@@H]2CC(=O)c3c(O)cc(O[C@@H]4O[C@H](CO[C@@H]5O[C@@H](C)[C@H](O)[C@@H](O)[C@H]5O)[C@@H](O)[C@H](O)[C@H]4O)cc3O2)cc1O | MRC5 | trypan blue exclusion | 100 µg/mL, 72 h | – | cell count | 19200 ± 523
COc1cc(CNC(=O)C[C@H](C)CCC=C(C)C)ccc1OCc1cn(-c2ccc([N+](=O)[O-])cc2)nn1 | SK-OV-3 ovarian cancer cells | SRB | 10 µM, 48 h | – | growth percent | 80.1%
CN1CCCNC(=O)c2cccc(c2)C(=O)NCCCN(C)CCCNc2cccc3c2C(=O)c2cccc(c2C3=O)NCCC1 | SAS | item: hTERT | concentration not given, 6 h | – | mRNA level | decreased

A few entries again:
SMILES | cell line | assay | conditions | scale | endpoint | value
COc1cc(CNC(=O)C[C@H](C)CCC=C(C)C)ccc1OCc1cn(-c2ccccc2[N+](=O)[O-])nn1 | SN12C | SRB | 10 µM, 48 h | – | growth percent | 73.7%
CN1CCN(C(=O)N(CCCCCCC(=O)NO)c2ccc(-c3ccc4cnn(C)c4c3)cc2)CC1 | multiple myeloma cells | immunoblot, item: p21 | 300 nM | – | protein level | increased
Cc1c(C(=O)Nc2ccn(C)n2)ncn1Cc1cccc(C(F)(F)F)c1 | M17D expressing αS E46K | western blot | 10 µM, 48 h, pS129 to total αS ratio | – | αS Ser129 phosphorylation | decreased
